Assay results collected from several papers.
Each line is one published result; not all experiments were run side by side. Numbers after ± are the reported error.
Sequence of UniProt Q9Y6E0 (whole entry, looked up): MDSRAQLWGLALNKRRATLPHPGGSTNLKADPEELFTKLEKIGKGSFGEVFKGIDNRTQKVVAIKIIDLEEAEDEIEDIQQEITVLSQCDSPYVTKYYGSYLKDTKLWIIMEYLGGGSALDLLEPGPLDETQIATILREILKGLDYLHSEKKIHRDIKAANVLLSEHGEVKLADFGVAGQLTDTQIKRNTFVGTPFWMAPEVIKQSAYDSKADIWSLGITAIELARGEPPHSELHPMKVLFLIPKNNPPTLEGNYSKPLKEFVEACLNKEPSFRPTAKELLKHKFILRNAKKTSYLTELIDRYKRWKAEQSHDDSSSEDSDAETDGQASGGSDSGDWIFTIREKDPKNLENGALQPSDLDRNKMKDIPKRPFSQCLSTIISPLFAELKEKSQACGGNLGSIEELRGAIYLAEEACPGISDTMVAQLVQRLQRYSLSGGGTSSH

Structure (SMILES)	tested on	test	test system	conditions	scale	measurement	value
Cc1cccc(-c2[nH]c(CNc3ccccc3F)nc2-c2ccc3ncnn3c2)n1	bone marrow CD138+ myeloma cells	XTT	–	2 µM, mean of three patients	–	viability	7%
CC1(C)COc2ccc(F)cc2CN2c3nc4c(cnn4cc3OC[C@H]2C(F)F)C(=O)N1	NB1 (ALK amplification, exon 2-3 deletion)	cell viability	–	–	–	Emax	82.7%
COc1ccc(-n2nc(C(C)=O)s/c2=N\N=C(/C)c2ccc(NC(=O)c3ccc(Cl)cc3)cc2)cc1	HepG2	–	–	10 µM	–	viability	6.13%
CCCCN1CCN(c2ccc3[nH]c(-c4ccc5[nH]c(-c6ccc(OCC)cc6)nc5c4)nc3c2)CC1	NCI/ADR-RES	cell growth, NCI-60 SRB	–	10 µM, 48 h	–	growth percent	87.8%
O=C(O)c1ccc(-c2c[nH]c3ncc(-c4ccccc4)cc23)cc1C1CCCC1	SK-OV-3	ATP	–	0.1 µM, 4 days, 3D U-bottom low-attachment	reference: untreated	relative cell number	104%
Cc1ccc2nc(NCCN)c3ncc(C)n3c2c1	iCell Cardiomyocytes (hiPSC-derived)	xCELLigence Cardio impedance	–	concentration not given, 2 h	reference: control	beat rate	90.7%
CCCCCCNC(=O)n1cc(F)c(=O)[nH]c1=O	SW-403	LC-MS, refers to: Cer(d18:1/16:0)	–	0.3 µM	–	ceramide level	27.5 ± 1.9 pmol/mg protein
COc1cnc2cccc(N3CCc4c(cc(Cn5ccnc5C)cc4-c4cn(C)nc4C(F)(F)F)C3=O)c2c1	TOV21G	cell growth, inhibitor	–	120 h	–	EC50	1.09 µM
CCCCc1nc(Cl)c(CO)n1Cc1ccc(-c2ccccc2-c2nn[nH]n2)cc1	human PBMC	RNA-seq, refers to: TGM2 mRNA	–	10 µg/mL, 24 h	reference: untreated control	log2 fold change	1.75
C=CC(=O)N1CCC[C@@H](n2nc(-c3ccc(Oc4ccccc4)cc3)c3c(N)ncnc32)C1	Ramos	calcium flux, FLIPR	–	4 h preincubation	–	maximum inhibition	82.8%
CCOC(=O)Cc1sc(NCc2ncccn2)nc1-c1ccccn1	THLE-2	–	–	–	reference: CC50 THLE-2 over Huh-7	selectivity ratio	< 2
CC[C@@H]1[C@H](F)C(=O)N[C@@H]1COc1nccc2cc(C(N)=O)c(OC)cc12	STK24 (Homo sapiens, UniProt Q9Y6E0)	ATP-site probe binding, ActivX profiling, refers to: MST3	THP-1 cell lysate	0.2 mM, Lys1 site	–	inhibition	-5.9%
Cc1ccc(F)c(NC(=O)Nc2ccc(-c3cccc4[nH]nc(N)c34)cc2)c1	iCell Cardiomyocytes (hiPSC-derived)	xCELLigence Cardio impedance	–	concentration not given, 2 h	reference: control	beat amplitude	99.4%
C[C@H](Nc1ccc2c(c1)OCCn1cc(N3C(=O)OC[C@H]3C(F)F)nc1-2)C(N)=O	T47D	cell growth	–	72 h	–	GR50	12.6 nM
C=C(c1ccc(OC)cc1)[C@@H]1c2cc(Oc3cc(C[C@H]4c5cc(OC)c(OC)cc5CCN4C)ccc3O)c(OC)cc2CCN1C	3T3-L1	adipocyte lipid accumulation, Nile Red staining	–	5 µM	–	inhibition	22.6 ± 1.1%
COc1ccc2c(c1)NC(=O)CN2c1nc(C)nc2ccccc12	A549	flow cytometry	–	0.003 µM, 24 h	–	cells in G0/G1 phase	3.74%
C[C@H]1CN(C2COC2)CCN1c1ccc(Nc2cc(-c3ccnc(N4CCn5c(cc6c5CC(C)(C)C6)C4=O)c3CO)cn(C)c2=O)nc1	Ramos	calcium flux, FLIPR	–	–	–	maximal inhibition	≤ 90%
O=C(CCl)N[C@@H](Cc1c[nH]c2ccccc12)C(=O)O	HeLa expressing HaloTag	cell permeability, chloroalkane penetration	–	–	–	CP50	529 ± 51 nM
Cn1cnc2c(F)c(Nc3ccc(Br)cc3F)c(C(=O)NOCCO)cc21	A549	–	–	10 µM, 72 h	–	viability	48.8%
CCn1cc(-c2cc(Cn3ccoc3=N)cc3c2CCN([C@@H](C)c2cc(OC)ccn2)C3=O)c(C(F)(F)F)n1	CFPAC-1	cell growth, inhibitor	–	120 h	–	EC50	> 30 µM
OCc1nc2ccc(NCc3ccc(SC(F)(F)F)cc3)cc2[nH]1	sample A patient iPSC NPCs	cell protection, MTS	–	up to 100 µM, 24 h	–	Emax	15%
C[C@H]1Oc2cc(cnc2N)-c2c(nn(C)c2C#N)CN(C)C(=O)c2ccc(F)cc21	Ba/F3 EML4-ALK variant 1 S1206F	cell viability	–	–	–	Emax	100%
Cn1cc(Nc2nccc(-c3ccc4c(c3)CN(C3COC3)CC[C@H]4NC(=O)c3cn(C(C)(C)C)nn3)n2)cn1	human B cells	–	–	100 nM, 64 h, stimulation-downregulated genes, together with: anti-IgM	–	number of downregulated genes	0
COc1cc(/C=C/C(=O)N2CCC=CC2=O)cc(OC)c1OC	MDA-MB-468	qRT-PCR, refers to: IDH2	–	30 µM, 6 h	reference: time zero	mRNA level	78.2 ± 9.9%
CC(C)C[C@H](NC(=O)C[C@H](O)[C@H](CC(C)C)NC(=O)[C@H](Cc1c[nH]cn1)NC(=O)CNC(=O)[C@@H](NC(=O)[C@H](C)NC(=O)[C@H](Cc1c[nH]c2ccccc12)NC(=O)[C@H](CCC(N)=O)NC(=O)[C@@H](Cc1ccccc1)NC(=O)COCCOCCNC(=O)CCC(C(=O)O)N1CCN(CC(=O)O)CCN(CC(=O)O)CCN(CC(=O)O)CC1)C(C)C)C(N)=O (stereo partly shown) [lutetium-177 labelled]	–	–	female BALB/c nu/nu mice, blood	intravenous, 100 pmol, 48 h, together with: PA 300 µg	–	tissue uptake	0.0023 ± 0.0007 %ID/g

Structure (SMILES)	tested on	test	test system	conditions	scale	measurement	value
Cn1c(Nc2nc3ccc(C(F)(F)F)cc3s2)nc2cc(C(=O)NCCOCCO)ccc21	SH-SY5Y	RNA-seq, refers to: IL4R mRNA	–	5 µM, 5 h	reference: untreated cells	fold change	2.09
OC(CCN1CCCCC1)(c1ccccc1)C1CC2C=CC1C2 (stereo not shown)	–	resting-state EEG	healthy elderly humans	oral, 4 mg, eyes open, LS mean	–	power, alpha, EEG O1-Pz	7.6 µV²
Cn1cc(-c2ccc(-c3cncc(Cl)c3N3CCC4(CCNC4=O)CC3)cc2)cn1	COLO 205	gene expression, microarray, refers to: SERPINH1 mRNA	–	concentration not given, 2 h	reference: untreated cells	log2 fold change	2.01
Cn1cc(-c2ccc(F)c(C(F)(F)F)c2)nc1C1CCN(c2ncnc3[nH]ncc23)CC1	SK-OV-3	ATP	–	10 µM, 4 days, 3D gellan gum culture	reference: untreated	relative cell number	94.4%
CC/C(=C(\c1ccccc1)c1ccc(OCCN(C)C)cc1)c1ccccc1	MCF7/luciferase, wild type	cell proliferation	–	–	–	maximum inhibition	79.4%
CNC(=O)c1ccccc1Sc1ccc2c(/C=C/c3ccccn3)n[nH]c2c1	iCell Cardiomyocytes (hiPSC-derived)	cellular impedance	–	concentration not given, 24 h	reference: control	cell index	102%
c1cnc2c(c1)ccc1cccnc12	differentiated THP-1	–	–	25 µg/mL	reference: untreated	TNF-α mRNA level	decreased
[Cl-].[Cl-].[Os+2].c1cnc2c(c1)ccc1cccnc12.c1cnc2c(c1)ccc1cccnc12.c1cnc2c(c1)ccc1cccnc12	SK-MEL-28	cell growth, SRB	–	green light 523 nm, normoxia	–	TGI	49.3 µM
CCn1cc(-c2cc(Cn3ccnc3)cc3c2CCN([C@H](c2cc(OC)ccn2)C2CC2)C3=O)c(C(F)(F)F)n1	SKMEL31	cell growth	–	120 h	–	EC50	> 30 µM
CN1CCN(S(=O)(=O)c2ccc(-c3cnc(N)c(C(=O)Nc4cccnc4)n3)cc2)CC1	ARPE-19 HiBiT fibulin-3	HiBiT luminescence	–	5 µM	–	fibulin-3 level	-46.4%
C[C@H](CO)C(=O)O	–	binding, equilibrium dialysis LC-MS	–	5 µM, thermostabilized A2AR-BRIL construct	reference: no-protein control, direction not given	z-scored log2 fold change	-0.0853
OC1CCN(c2ccc(/C=N/NC(=S)NCc3ccccc3)cc2)CC1	BEAS-2B and A549	MTT	–	–	reference: IC50 BEAS-2B over IC50 A549	selectivity ratio	3
O=P(O)(O)OC1O[C@H](CO)[C@@H](O)[C@H](O)[C@@H]1O (stereo partly shown)	–	binding, equilibrium dialysis LC-MS	–	5 µM, thermostabilized A2AR-BRIL construct	reference: no-protein control, direction not given	z-scored log2 fold change	0.126
CSC(=O)c1cccc2nnsc12	HepaRG	ROS-Glo	–	–	–	maximal ROS response	-87.4 ± 16.9%
C[C@@H](Oc1cc(-c2cnn(C3CCNCC3)c2)cnc1N)c1c(Cl)ccc(F)c1Cl	iCell Cardiomyocytes (hiPSC-derived)	xCELLigence Cardio impedance	–	concentration not given, 2 h	reference: control	beat rate	56.9%
COc1cc(-c2ccccc2)ncc1C(=O)Nc1ccc2c(=O)[nH]c(-c3ccc(C(C)(C)O)cc3)nc2c1	Apc Q1405X mutant organoids	organoid viability, AlamarBlue	mouse small intestinal organoids	6 days, Tnks genotype Tnks+/-	–	Hill slope	-0.788
CC(C)NCC(O)c1ccc(O)c(O)c1 (stereo not shown)	mouse ventricular cardiomyocytes	–	–	dose not given, 0.207 s	–	sarcomere length	1.75 µm
CC#CC(=O)N1CCC[C@H]1c1nc(-c2ccc(C(=O)Nc3ccccn3)cc2)c2c(N)nccn12	Ramos	calcium flux, FLIPR	–	2 h preincubation	–	maximum inhibition	86.5%
C#C[C@@]1(O)[C@@H](CO)O[C@@H](n2cc(F)c3c(N)ncnc32)[C@@H]1O	NCI/ADR-RES	cell growth, SRB	–	–	–	TGI	11.3 µM
Cc1cc(Nc2ccc(S(F)(F)(F)(F)F)cc2)n2nc(C(C)(F)F)nc2n1	Plasmodium falciparum	LC-MS/MS	malaria patients, plasma	oral, 400 mg	–	terminal half-life	96.7 h
COc1cc2ncnc(Cc3cccc(-c4ccccc4CO)c3)c2cc1OC	A549	mitochondrial oxygen consumption, Seahorse XF96	–	10 µM	–	inhibition	20%
CC[C@@H]1C(=O)N(C)c2cnc(Nc3ccc(C(=O)NC4CCN(C)CC4)cc3OC)nc2N1C1CCCC1	iCell Cardiomyocytes (hiPSC-derived)	CellTiter-Glo	–	concentration not given, 24 h	reference: control	ATP level	91.7%
O=C(Nc1c[nH]nc1-c1nc2ccc(CN3CCOCC3)cc2[nH]1)NC1CC1	ARPE-19 HiBiT fibulin-3	HiBiT luminescence	–	1.66 µM	–	fibulin-3 level	-29.8%
N=C(N)NCCC[C@@H](NC(=O)CCOCCOCCNC(=O)[C@H](CCCCNC(=O)CC[C@H](NC(=O)c1ccc(NCc2cnc3nc(N)[nH]c(=O)c3n2)cc1)C(=O)O)NC(=O)CO/N=C/[C@H](F)[C@@H](O)[C@H](O)[C@H](O)CO)C(=O)NCC(=O)N[C@H](CC(=O)O)C(N)=O [fluorine-18 labelled]	–	–	female nude mouse, liver	intravenous, 1 µg, 0.75 h	–	tissue uptake	1.1 ± 0.22 %ID/g

A few entries again:
Structure (SMILES)	tested on	test	test system	conditions	scale	measurement	value
CCn1cc(-c2cc(Cn3ccoc3=N)cc3c2CCN([C@@H](C)c2cc(OC)ccn2)C3=O)c(C(F)(F)F)n1	CFPAC-1	cell growth, inhibitor	–	120 h	–	EC50	> 30 µM
OCc1nc2ccc(NCc3ccc(SC(F)(F)F)cc3)cc2[nH]1	sample A patient iPSC NPCs	cell protection, MTS	–	up to 100 µM, 24 h	–	Emax	15%
C[C@H]1Oc2cc(cnc2N)-c2c(nn(C)c2C#N)CN(C)C(=O)c2ccc(F)cc21	Ba/F3 EML4-ALK variant 1 S1206F	cell viability	–	–	–	Emax	100%
Cn1cc(Nc2nccc(-c3ccc4c(c3)CN(C3COC3)CC[C@H]4NC(=O)c3cn(C(C)(C)C)nn3)n2)cn1	human B cells	–	–	100 nM, 64 h, stimulation-downregulated genes, together with: anti-IgM	–	number of downregulated genes	0
COc1cc(/C=C/C(=O)N2CCC=CC2=O)cc(OC)c1OC	MDA-MB-468	qRT-PCR, refers to: IDH2	–	30 µM, 6 h	reference: time zero	mRNA level	78.2 ± 9.9%
CC(C)C[C@H](NC(=O)C[C@H](O)[C@H](CC(C)C)NC(=O)[C@H](Cc1c[nH]cn1)NC(=O)CNC(=O)[C@@H](NC(=O)[C@H](C)NC(=O)[C@H](Cc1c[nH]c2ccccc12)NC(=O)[C@H](CCC(N)=O)NC(=O)[C@@H](Cc1ccccc1)NC(=O)COCCOCCNC(=O)CCC(C(=O)O)N1CCN(CC(=O)O)CCN(CC(=O)O)CCN(CC(=O)O)CC1)C(C)C)C(N)=O (stereo partly shown) [lutetium-177 labelled]	–	–	female BALB/c nu/nu mice, blood	intravenous, 100 pmol, 48 h, together with: PA 300 µg	–	tissue uptake	0.0023 ± 0.0007 %ID/g
